Experimental data collected from several papers.
Lines come from different studies, so protocols differ. Several values in a cell are separate wells, animals, samples, runs or records. ± gives the spread as reported.
PLK1: Serine/threonine-protein kinase PLK1 (PLK1, Homo sapiens, UniProt P53350)
Voltage-dependent P/Q-type calcium channel subunit alpha-1A: Voltage-dependent P/Q-type calcium channel subunit alpha-1A (Homo sapiens, UniProt O00555)
UCHL1: Ubiquitin carboxyl-terminal hydrolase isozyme L1 (UCHL1, Homo sapiens, UniProt P09936)
ADRA2C: Alpha-2C adrenergic receptor (ADRA2C, Homo sapiens, UniProt P18825)
T1: G-quadruplex DNA (Homo sapiens); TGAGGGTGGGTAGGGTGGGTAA

SMILES | tested on | assay | system | setting | how to read | quantity | value
CC[C@@H]1[C@H](F)C(=O)N[C@@H]1COc1nccc2cc(C(N)=O)c(OC)cc12 | PLK1 | ATP-site probe binding, ActivX profiling | THP-1 cell lysate | 0.04 mM, Lys2 site | – | inhibition | 3.7%
O=c1nc(SCc2cc(F)cc(C(F)(F)F)c2)nc(SCc2ccc3sccc3c2)[nH]1 | TOP2A (Homo sapiens, UniProt P11388) | ATPase activity | – | 1.95 µM, with: ATP 0.05 mM | – | ATP hydrolysis rate | 0.55 µM/min and 0.643 µM/min
O=S(=O)(O)C1CCNCC1 | SLC6A6 (Homo sapiens, UniProt P31641, G62A) | binding, microscale thermophoresis | – | 30.5 nM, room temperature, with: 50 nM labelled protein | higher = more binding | normalised MST signal | -0.00657
N[C@@H](CCC(=O)O)C(=O)O | glc-2 (Caenorhabditis elegans, UniProt Q17328) | two-electrode voltage clamp | Xenopus laevis oocytes | – | – | mean current | 8.7 µA
CCn1cc(C(=O)O)c(=O)c2cc(F)c(N3CCNCC3)nc21 | Voltage-dependent P/Q-type calcium channel subunit alpha-1A | ion current, antagonist | HEK293 | 3 µM | – | inhibition | 8%
Br.CCCCCCCCCn1c2c(c(=N)c3c1CCC3)CCCC2 | Trypanosoma cruzi | reporter translation, Renilla luciferase mRNA translation | cell-free extract | 40 µM | baseline: DMSO | inhibition | 68.8%
Nc1nc2ccc(OC(F)(F)F)cc2s1 | Voltage-dependent P/Q-type calcium channel subunit alpha-1A | ion current, antagonist, automated patch clamp | – | – | – | IC30 | 12 µM
O=C[C@H](O)COP(=O)(O)O | dxs (Escherichia coli, UniProt P77488) | substrate, IspC-coupled DXP formation | – | – | – | Km | 19 to 73 µM
O=c1[nH]ccn1-c1ccc(NS(=O)(=O)c2cc(Cl)cc(Cl)c2O)cc1 | malate dehydrogenase | enzyme activity, inhibitor | – | 200 µM, pH 7.0, 1% DMSO, aggregation counter-screen | – | remaining activity | 78%
C=CC(=O)Nc1cccc(Oc2nc(Nc3ccc(N4CCN(C)CC4)cc3)nc3ccoc23)c1 | Tyrosine-protein kinase BTK, activated (BTK, Homo sapiens, UniProt Q06187) | covalent inhibitor | – | – | – | kinact | 0.00806 s⁻¹
C#CCCC1(CC[C@H](NC(=O)NCCCCCCNC(=O)NCCN)C(N)=O)N=N1 | FKBP1A (Homo sapiens, UniProt P62942) | photoaffinity labeling, in-gel fluorescence, measured: Alexa Fluor 647 click label | – | 10 µM, UV irradiation 365 nm | higher = more labeling | probe labeling fluorescence | 1910 a.u.
CCCCC(=O)NN(CC)c1cc(C)c(C#N)c(Cl)n1 | UCHL1 | covalent, intact protein LC-MS | – | 12.5 µM | – | labelling | 5.73%
CCOC(=O)c1[nH]c2cc(Cl)ccc2c1C(C(=O)NC(C)(C)C)N(C=O)Cc1ccc(Oc2ccccc2)cc1 (centres unmarked) | MDM2 (Homo sapiens, UniProt Q00987) | fluorescence polarization | – | – | – | Ki | 1.8 µM
Nc1ccc(C(=O)O)cc1 | BEST1, with wild-type BEST1 (Homo sapiens, UniProt O76090, R218H) | ion current, whole-cell patch clamp | HEK293 co-expressing mutant and wild-type | concentration not given, voltage 60 mV | – | current density | 11.4 pA/pF and 6.4 pA/pF and 4.75 pA/pF and 19.6 pA/pF and 12.6 pA/pF and 16.4 pA/pF and 25.3 pA/pF and 3.53 pA/pF
CC(=O)Nc1ccc(S(=O)(=O)Oc2ccccc2C=O)cc1 | UCHL1 | covalent, intact protein LC-MS | – | 12.5 µM | – | labelling | 15.3%
Nc1ncnc2c1nc(N/N=C/c1ccc([N+](=O)[O-])cc1)n2[C@@H]1O[C@H](CO)[C@@H](O)[C@H]1O | B4GALT1 (Homo sapiens, UniProt P15291) | enzyme activity, inhibitor, UDP-Glo | – | 10 µM | lower means stronger inhibition | luminescence | 60100 a.u.
CN1C(N)=N[C@](C)(c2cc(NC(=O)c3ccc(F)cn3)ccc2F)CS1(=O)=O | Voltage-dependent P/Q-type calcium channel subunit alpha-1A | ion current, antagonist, automated patch clamp | – | – | – | IC30 | 8.82 µM
CNC(=O)[C@H](CNC(=O)CCn1c(=O)[nH]c(=O)c2ccccc21)NC(=O)c1cnc2ccccc2c1 | TNKS (Homo sapiens, UniProt O95271) | enzyme activity, inhibitor | – | – | – | ligand efficiency | 0.46
CN(c1ccccc1)S(=O)(=O)c1cccc(NC(=O)CCl)c1 | UCHL1 | covalent, intact protein LC-MS | – | 12.5 µM | – | labelling | 13.3%
Cc1cc(Cl)c(O)c(NS(=O)(=O)c2cc(Cl)cc(Cl)c2O)c1F | malate dehydrogenase | enzyme activity, inhibitor | – | 200 µM, pH 7.0, 1% DMSO, aggregation counter-screen | – | remaining activity | 89%
O=C(O)Cc1ccccc1Nc1c(Cl)cccc1Cl | Voltage-dependent P/Q-type calcium channel subunit alpha-1A | ion current, antagonist, automated patch clamp | – | – | – | IC30 | > 30 µM
O=C(CCl)NCCc1nc2ccccc2s1 | UCHL1 | covalent, intact protein LC-MS | – | 12.5 µM | – | labelling | 10.4%

SMILES | tested on | assay | system | setting | how to read | quantity | value
CC(=O)N[C@H](C(=O)N1C[C@H](O)C[C@H]1C(=O)NCc1ccc(-c2scnc2C)cc1)C(C)(C)SCCCCCCNC(=O)C[C@@H]1N=C(c2ccc(Cl)cc2)c2c(sc(C)c2C)-n2c(C)nnc21 | BRD4/VHL, BD1; with elongins B/C (Homo sapiens, UniProt O60885+P40337) | ternary complex binding, ITC | – | 25 °C, with: VHL-ElonginB-ElonginC titrated into compound:PROTAC:Brd4^BD1 complex | – | ΔG | -8.8 ± 0.2 kcal/mol
CCC(=O)NS(=O)(=O)c1ccc(-c2c(-c3ccccc3)noc2C)cc1 | Nuclear receptor subfamily 1 group I member 3 (Homo sapiens, UniProt Q14994) | reporter gene, Gal4 hybrid reporter | – | 50 µM | baseline: vehicle | activation | 0.99 fold
C=CC(=O)N1CCC(COCC(=O)N2CCN(c3nc(-c4cnc(N)nc4C(F)F)nc(N4CCOC[C@@H]4C)n3)CC2)CC1 | PIK3CA (Homo sapiens, UniProt P42336, C420R) | KINOMEscan | – | 1 µM | – | remaining binding | 0%
Oc1ccccc1-c1n[nH]cc1-c1ccnc2ccccc12 | Serine/threonine-protein kinase BUR1 (CRK1, Candida albicans, UniProt Q9Y7W4) | kinase binding, MIB/MS competition | Candida albicans lysate | 1 µM | baseline: DMSO, negative = stronger binding | log2 fold change | -0.03
O=C(CCl)N1N=C(c2cccs2)CC1c1ccc(F)cc1 (centres unmarked) | UCHL1 | covalent, intact protein LC-MS | – | 12.5 µM | – | labelling | 16.5%
Cc1c(NS(=O)(=O)c2cc(Cl)cc(Cl)c2O)cccc1-n1cn[nH]c1=O | malate dehydrogenase | enzyme activity, inhibitor | – | 200 µM, pH 7.0, 1% DMSO, aggregation counter-screen | – | remaining activity | 78%
N#Cc1nc(COc2ccccc2F)oc1N1CCC(C(N)=O)CC1 | UCHL1 | covalent, intact protein LC-MS | – | 12.5 µM | – | labelling | 16.1%
C=CC(NS(=O)(=O)c1cccc(Cl)c1O)C1CCC1 (centres unmarked) | malate dehydrogenase | enzyme activity, inhibitor | – | 200 µM, pH 7.0, 1% DMSO, aggregation counter-screen | – | remaining activity | 95%
CC#CC(=O)NC1CCCN(C(=O)c2ccc(C(F)(F)F)cc2)C1 (centres unmarked) | UCHL1 | covalent, intact protein LC-MS | – | 12.5 µM | – | labelling | 21.5%
CCCN(CCC)CCc1cccc2c1CC(=O)N2 | Voltage-dependent P/Q-type calcium channel subunit alpha-1A | ion current, antagonist | HEK293 | 30 µM | – | inhibition | 10%
Nc1nc2c(ncn2[C@@H]2O[C@H](COP(=O)(O)O)[C@@H](O)[C@H]2O)c(=O)[nH]1 | GUK1 (Homo sapiens, UniProt Q16774, D103A) | binding, ITC | – | – | – | ΔH | -8.6 ± 0.1 kcal/mol
COCCNC(=O)C(C#N)=Cc1cccc2ccccc12 | UCHL1 | covalent, intact protein LC-MS | – | 12.5 µM | – | labelling | 14.4%
CSCC[C@H](NC(C)=O)C(=O)N[C@@H](CC(=O)O)C(=O)N1CCC[C@H]1C(=O)N1CCC[C@H]1C(=O)N[C@@H](CC(C)C)C(=O)N[C@@H](Cc1c[nH]cn1)C(=O)N[C@@H](CO)C(=O)N[C@H](C(=O)N[C@@H](C)C(N)=O)[C@@H](C)OP(=O)(O)O | PLK1 | polo-box domain binding, isothermal titration calorimetry | – | concentration not given, 25 °C | – | binding entropy | -25.5 cal/(mol·K)
O=C(O)C1=CCNCC1 | BEST1 (Homo sapiens, UniProt O76090) | whole-cell patch clamp | HEK293 transiently expressing channel | concentration not given, membrane potential 40 mV | – | current density | 42.6 pA/pF and 37.5 pA/pF and 18.6 pA/pF and 18.5 pA/pF and 55.6 pA/pF and 13.7 pA/pF
O=C(C1=C[C@H](C2CCCCC2)C[C@H](OCCCCO)O1)N1CCN(Cc2ccc3c(c2)OCO3)CC1 | Trypanosoma cruzi | reporter translation, Renilla luciferase mRNA translation | cell-free extract | 40 µM | baseline: DMSO | inhibition | 20.6%
Cc1cc(Oc2ncccc2CN2CCN(c3ncccc3C(F)(F)F)CC2)ccc1-c1c(C)c(=O)[nH]c(=O)n1C | ADRA2C | binding, radioligand binding | – | with: [3H]rauwolscine | baseline: Ki alpha2A over Ki alpha2C | selectivity ratio | 6
CCc1ccc(S(=O)(=O)n2nc(SCc3ccc(Cl)cc3)nc2N)cc1 | LYPLAL1 (Homo sapiens, UniProt Q5VWZ2) | enzyme activity, activator, gel-based ABPP | purified protein | concentration not given, with: FP-rhodamine | baseline: DMSO | probe labeling increase | 2.2 fold
Nc1ncnc2c1ncn2[C@@H]1O[C@H](COP(=O)(O)CP(=O)(O)OP(=O)(O)O)[C@@H](O)[C@H]1O | P2X purinoceptor 1 (P2RX1, Homo sapiens, UniProt P51575, L218T) | calcium influx | – | 3.16 µM | baseline: ionomycin response | calcium influx | 99.1% and 88.8% and 96.5%
O=c1ccc2c(OCCCCOc3ccc(O)cc3)c3ccoc3cc2o1 | Kcna3 (Mus musculus, UniProt P16390) | potassium current, blocker | L929 | – | – | Hill coefficient | 1.6
Oc1ccc([C@@H]2c3c(O)cc(O)cc3[C@@H]3c4c(cc(O)c5c4[C@@H]2[C@H](c2ccc(O)cc2)[C@H]5c2cc(O)cc4c2[C@@H](c2cc(O)cc(O)c2)[C@H](c2ccc(O)cc2)O4)O[C@H]3c2ccc(O)cc2)cc1 | Alpha-amylase 1A (AMY1A, Homo sapiens, UniProt P0DUB6) | enzyme activity | – | 10 µM | – | Vmax | 555 ± 194 µmol/min
c1cc(-c2nc(NCCCN3CCCC3)c3ccccc3n2)nc(-c2nc(NCCCN3CCCC3)c3ccccc3n2)c1 | T1, G-quadruplex DNA (Homo sapiens) | thiazole orange displacement, competitor, FID | – | 0.25 µM DNA, pH 7.4, 25 °C, KCl 100 mM, with: thiazole orange 0.50 µM | – | IC50 | 0.273 µM
Cc1cc(Oc2ncccc2CN2CCN(c3cccc4ccccc34)CC2)ccc1-c1c(C)c(=O)[nH]c(=O)n1C | ADRA2C | binding, radioligand binding | – | with: [3H]rauwolscine | baseline: Ki alpha2B over Ki alpha2C | selectivity ratio | 9

A few entries again:
SMILES | tested on | assay | system | setting | how to read | quantity | value
CC(=O)N[C@H](C(=O)N1C[C@H](O)C[C@H]1C(=O)NCc1ccc(-c2scnc2C)cc1)C(C)(C)SCCCCCCNC(=O)C[C@@H]1N=C(c2ccc(Cl)cc2)c2c(sc(C)c2C)-n2c(C)nnc21 | BRD4/VHL, BD1; with elongins B/C (Homo sapiens, UniProt O60885+P40337) | ternary complex binding, ITC | – | 25 °C, with: VHL-ElonginB-ElonginC titrated into compound:PROTAC:Brd4^BD1 complex | – | ΔG | -8.8 ± 0.2 kcal/mol
Nc1ncnc2c1ncn2[C@@H]1O[C@H](COP(=O)(O)CP(=O)(O)OP(=O)(O)O)[C@@H](O)[C@H]1O | P2X purinoceptor 1 (P2RX1, Homo sapiens, UniProt P51575, L218T) | calcium influx | – | 3.16 µM | baseline: ionomycin response | calcium influx | 99.1% and 88.8% and 96.5%
C=CC(=O)N1CCC(COCC(=O)N2CCN(c3nc(-c4cnc(N)nc4C(F)F)nc(N4CCOC[C@@H]4C)n3)CC2)CC1 | PIK3CA (Homo sapiens, UniProt P42336, C420R) | KINOMEscan | – | 1 µM | – | remaining binding | 0%
